# Experimental data collected from several papers.
# Parts stem from different laboratories: compare values within a part only. Changes are numbered by the printed parent chain.

# Sample 1
# Target: tungstate, free oxyanion
# Method: microfluidic competitive inhibition
# Medium: in vitro, cell-free expressed
# Concentration: not given
# Setting: derived from inhibition constants, unchanged parent 2230 nM
# Reading: lower = stronger binding
# Parent: PafA, mature enzyme, eGFP fusion (Elizabethkingia meningoseptica, UniProt Q9KJX5); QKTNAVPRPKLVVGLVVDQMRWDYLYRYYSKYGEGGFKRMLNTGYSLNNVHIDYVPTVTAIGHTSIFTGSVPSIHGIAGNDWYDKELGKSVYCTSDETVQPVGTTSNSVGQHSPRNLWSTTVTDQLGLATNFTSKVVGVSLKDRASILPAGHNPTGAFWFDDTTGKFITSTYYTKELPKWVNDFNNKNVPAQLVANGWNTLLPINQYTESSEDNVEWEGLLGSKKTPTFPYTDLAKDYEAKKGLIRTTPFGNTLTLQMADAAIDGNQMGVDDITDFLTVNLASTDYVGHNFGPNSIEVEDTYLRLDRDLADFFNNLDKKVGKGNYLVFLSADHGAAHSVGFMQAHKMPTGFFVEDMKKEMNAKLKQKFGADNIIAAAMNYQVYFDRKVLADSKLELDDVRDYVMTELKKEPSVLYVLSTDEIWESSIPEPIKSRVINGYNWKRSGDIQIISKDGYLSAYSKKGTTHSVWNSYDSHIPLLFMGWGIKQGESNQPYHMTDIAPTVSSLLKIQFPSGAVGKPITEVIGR
Substitution,oxyanion analog dissociation constant [µM]
N116G,2.13
D81V,3.14
W423G,2.04
D420V,2.54
D264G,2.16
F511V,2.28
Y455V,2.39
G369A,2.17

# Sample 2
# Target: CCND2, cyclin fold, Cln2 fusion (human)
# Method: yeast growth competition, sequencing
# Medium: yeast
# Setting: weak parent motif
# Relative to: not given
# Reading: higher = stronger binding
# Parent: viral docking peptide; CKVKRKLFGSENI
Substitution,normalised enrichment score
R5A,-0.202
V3A,0.537
E11A,0.115
C1A,0.113

# Sample 3
# Target: UDP-N-acetylglucosamine--peptide N-acetylglucosaminyltransferase 110 kDa subunit (OGT, Homo sapiens, UniProt O15294)
# Chain of UniProt O15294 (whole entry, looked up): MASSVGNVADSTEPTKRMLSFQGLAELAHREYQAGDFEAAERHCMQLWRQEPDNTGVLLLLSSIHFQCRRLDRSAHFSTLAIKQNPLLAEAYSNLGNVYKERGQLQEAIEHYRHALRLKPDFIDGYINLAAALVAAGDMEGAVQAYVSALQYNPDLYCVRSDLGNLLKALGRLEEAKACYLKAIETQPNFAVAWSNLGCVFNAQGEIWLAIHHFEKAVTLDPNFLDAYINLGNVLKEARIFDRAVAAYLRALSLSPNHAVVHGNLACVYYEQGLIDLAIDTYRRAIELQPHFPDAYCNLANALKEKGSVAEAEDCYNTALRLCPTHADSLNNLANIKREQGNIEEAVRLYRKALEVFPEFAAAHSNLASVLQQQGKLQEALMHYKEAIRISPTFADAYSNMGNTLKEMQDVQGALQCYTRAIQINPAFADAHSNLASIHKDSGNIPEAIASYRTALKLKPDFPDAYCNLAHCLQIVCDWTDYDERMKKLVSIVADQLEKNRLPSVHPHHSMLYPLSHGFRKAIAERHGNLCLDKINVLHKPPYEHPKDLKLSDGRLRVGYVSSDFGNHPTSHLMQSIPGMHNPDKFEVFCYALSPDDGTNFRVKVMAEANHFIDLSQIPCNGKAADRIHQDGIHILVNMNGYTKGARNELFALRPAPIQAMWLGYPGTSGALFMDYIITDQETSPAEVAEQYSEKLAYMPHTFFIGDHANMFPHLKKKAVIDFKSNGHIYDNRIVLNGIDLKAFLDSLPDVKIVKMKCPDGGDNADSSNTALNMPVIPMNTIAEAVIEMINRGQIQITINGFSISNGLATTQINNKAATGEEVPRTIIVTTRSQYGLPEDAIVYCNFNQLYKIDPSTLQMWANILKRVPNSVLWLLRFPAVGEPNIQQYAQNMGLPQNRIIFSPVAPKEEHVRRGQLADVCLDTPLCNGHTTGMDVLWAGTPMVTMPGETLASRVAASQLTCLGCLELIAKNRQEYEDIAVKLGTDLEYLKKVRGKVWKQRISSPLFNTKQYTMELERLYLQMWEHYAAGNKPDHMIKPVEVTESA
# Effect on: binding
# Method: phage display NGS
# Form: peptide
# Relative to: input library
Molecule,minimum log2 enrichment ratio
SNKQDLMPAYQIQYG,3.3
HRASMHHVFSPHLDH,2.67
VPLYHERHHHGPHE,2.71
QPTKHFRSHHTYTAN,2.91
STFGRYLPSYIIQYR,5.06
HVDVRFPSAHHVRGT,1.15
NNNIYWPKYQITNTL,2.85
KYTPLYQIHAMPQAV,1.37

# Single results of other studies
SMILES,target,effect on,concentration,quantity,value
Cn1cncc1[C@@](O)(COc1ccc(C#N)cc1-c1ccc(OC(F)(F)F)cc1)c1ccc(C#N)cc1,"Sigma non-opioid intracellular receptor 1 (SIGMAR1, Homo sapiens, UniProt Q99720)",ligand displacement,10 µM,inhibition,92.3%

# Repeated from above (sample 1):
Substitution,oxyanion analog dissociation constant [µM]
D81V,3.14
